Experimental data of several laboratories.
A part holds a random share of what one study measured. “And” joins repeats or separate records; there may be more than shown.
Sequence of UniProt P35590 (whole entry, looked up): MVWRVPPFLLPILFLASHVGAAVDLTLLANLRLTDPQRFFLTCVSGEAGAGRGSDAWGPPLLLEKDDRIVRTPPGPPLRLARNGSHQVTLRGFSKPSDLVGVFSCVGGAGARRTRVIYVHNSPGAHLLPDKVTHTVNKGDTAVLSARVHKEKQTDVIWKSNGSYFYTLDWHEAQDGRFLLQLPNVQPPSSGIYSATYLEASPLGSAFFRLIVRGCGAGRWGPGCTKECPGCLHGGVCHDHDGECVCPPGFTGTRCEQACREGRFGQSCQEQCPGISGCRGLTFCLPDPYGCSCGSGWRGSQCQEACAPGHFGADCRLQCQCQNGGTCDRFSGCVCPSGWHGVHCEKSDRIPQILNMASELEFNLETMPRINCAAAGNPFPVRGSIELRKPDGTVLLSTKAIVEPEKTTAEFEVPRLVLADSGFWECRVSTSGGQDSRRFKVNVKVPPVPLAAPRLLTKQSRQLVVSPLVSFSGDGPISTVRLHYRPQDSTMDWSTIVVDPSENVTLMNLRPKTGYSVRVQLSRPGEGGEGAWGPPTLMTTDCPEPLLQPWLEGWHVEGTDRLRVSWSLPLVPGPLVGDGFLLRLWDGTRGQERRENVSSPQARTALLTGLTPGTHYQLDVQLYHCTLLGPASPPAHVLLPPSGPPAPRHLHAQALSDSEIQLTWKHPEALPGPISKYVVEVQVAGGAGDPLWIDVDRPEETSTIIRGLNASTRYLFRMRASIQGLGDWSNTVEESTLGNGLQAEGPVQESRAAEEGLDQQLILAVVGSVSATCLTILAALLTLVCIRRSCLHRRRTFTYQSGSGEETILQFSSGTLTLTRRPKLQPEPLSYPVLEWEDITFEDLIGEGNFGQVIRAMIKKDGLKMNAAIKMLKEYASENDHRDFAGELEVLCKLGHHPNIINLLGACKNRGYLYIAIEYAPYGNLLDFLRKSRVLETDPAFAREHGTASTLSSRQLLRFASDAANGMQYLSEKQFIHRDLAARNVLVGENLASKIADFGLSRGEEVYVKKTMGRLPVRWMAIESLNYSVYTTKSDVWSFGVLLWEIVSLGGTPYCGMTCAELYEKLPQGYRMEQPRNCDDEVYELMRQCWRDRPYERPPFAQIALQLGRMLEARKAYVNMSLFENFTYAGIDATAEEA
Sequence of UniProt Q9Y2H9 (whole entry, looked up): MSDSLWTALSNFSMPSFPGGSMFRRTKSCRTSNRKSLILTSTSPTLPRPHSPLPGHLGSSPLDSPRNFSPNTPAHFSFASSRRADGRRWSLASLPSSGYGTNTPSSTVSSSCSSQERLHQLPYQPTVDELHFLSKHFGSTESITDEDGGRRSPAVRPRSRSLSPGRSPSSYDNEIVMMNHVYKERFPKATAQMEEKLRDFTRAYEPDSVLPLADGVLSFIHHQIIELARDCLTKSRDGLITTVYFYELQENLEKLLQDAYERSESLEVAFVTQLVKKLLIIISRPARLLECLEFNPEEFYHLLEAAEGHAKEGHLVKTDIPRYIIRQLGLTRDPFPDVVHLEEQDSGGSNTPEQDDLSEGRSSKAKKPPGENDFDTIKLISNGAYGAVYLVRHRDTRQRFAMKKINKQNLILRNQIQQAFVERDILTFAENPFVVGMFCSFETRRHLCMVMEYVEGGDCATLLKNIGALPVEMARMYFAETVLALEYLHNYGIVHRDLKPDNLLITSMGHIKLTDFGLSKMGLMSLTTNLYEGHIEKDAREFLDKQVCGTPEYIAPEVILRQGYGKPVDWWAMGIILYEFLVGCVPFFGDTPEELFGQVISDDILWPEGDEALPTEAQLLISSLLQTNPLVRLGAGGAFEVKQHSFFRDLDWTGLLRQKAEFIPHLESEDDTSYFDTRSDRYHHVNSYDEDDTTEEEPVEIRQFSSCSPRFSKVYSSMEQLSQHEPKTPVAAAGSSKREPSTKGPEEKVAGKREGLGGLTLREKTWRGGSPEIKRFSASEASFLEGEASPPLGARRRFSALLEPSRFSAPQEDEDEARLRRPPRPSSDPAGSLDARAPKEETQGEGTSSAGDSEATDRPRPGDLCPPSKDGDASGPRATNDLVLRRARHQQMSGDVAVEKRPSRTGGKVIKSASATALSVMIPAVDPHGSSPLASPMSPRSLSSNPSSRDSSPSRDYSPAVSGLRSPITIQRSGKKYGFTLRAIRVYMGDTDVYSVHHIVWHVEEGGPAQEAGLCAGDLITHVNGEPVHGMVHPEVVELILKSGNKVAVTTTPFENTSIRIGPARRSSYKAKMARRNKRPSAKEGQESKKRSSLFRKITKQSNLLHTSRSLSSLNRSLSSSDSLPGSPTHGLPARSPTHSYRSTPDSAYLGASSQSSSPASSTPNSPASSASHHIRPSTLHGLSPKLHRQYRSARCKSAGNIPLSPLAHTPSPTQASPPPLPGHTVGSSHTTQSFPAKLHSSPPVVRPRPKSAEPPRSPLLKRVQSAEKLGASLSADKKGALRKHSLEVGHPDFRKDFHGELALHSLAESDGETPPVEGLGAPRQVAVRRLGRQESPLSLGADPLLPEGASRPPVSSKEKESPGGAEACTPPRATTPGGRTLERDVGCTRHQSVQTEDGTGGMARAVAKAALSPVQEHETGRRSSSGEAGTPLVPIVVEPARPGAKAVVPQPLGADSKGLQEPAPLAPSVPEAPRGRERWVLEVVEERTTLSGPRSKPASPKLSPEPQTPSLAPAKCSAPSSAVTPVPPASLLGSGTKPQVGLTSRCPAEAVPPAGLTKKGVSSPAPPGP
Sequence of UniProt P53779 (whole entry, looked up): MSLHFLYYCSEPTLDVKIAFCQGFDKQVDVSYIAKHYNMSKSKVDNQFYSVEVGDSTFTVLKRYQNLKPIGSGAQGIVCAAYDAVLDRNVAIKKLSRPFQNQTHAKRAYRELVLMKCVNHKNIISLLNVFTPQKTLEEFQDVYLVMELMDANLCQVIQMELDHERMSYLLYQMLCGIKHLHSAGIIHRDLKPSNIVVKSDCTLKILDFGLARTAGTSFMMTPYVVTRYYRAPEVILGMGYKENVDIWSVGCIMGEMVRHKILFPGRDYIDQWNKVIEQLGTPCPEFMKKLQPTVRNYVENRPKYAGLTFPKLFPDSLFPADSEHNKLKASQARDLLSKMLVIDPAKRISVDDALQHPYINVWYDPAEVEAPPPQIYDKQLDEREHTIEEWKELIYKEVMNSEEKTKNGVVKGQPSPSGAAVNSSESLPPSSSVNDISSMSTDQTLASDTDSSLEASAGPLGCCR
Sequence of UniProt P11802 (whole entry, looked up): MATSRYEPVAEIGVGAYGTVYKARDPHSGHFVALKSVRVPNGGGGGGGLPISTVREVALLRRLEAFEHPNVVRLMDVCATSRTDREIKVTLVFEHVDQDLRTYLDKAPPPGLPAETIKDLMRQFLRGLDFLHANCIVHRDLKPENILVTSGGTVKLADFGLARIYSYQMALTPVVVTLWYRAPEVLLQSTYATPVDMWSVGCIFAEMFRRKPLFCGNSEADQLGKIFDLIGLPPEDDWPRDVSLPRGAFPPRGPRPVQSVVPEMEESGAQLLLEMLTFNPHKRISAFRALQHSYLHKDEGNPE

Sample 1 — cell line: mouse MPNST tumor cells; technique: high-content nuclear imaging; refers to: cell number; concentration: 10 µM; time: 12 h; notes: mean of 2 replicates; relative to: plate mean; reading: higher = more cells
SMILES | nuclei count
O=C1NCC2(CCN(CCc3ccccc3)CC2)O1 | 1.36 z-score
OCCN1C[C@H](O)[C@@H](O)[C@H](O)[C@H]1CO | 0.558 z-score and 0.314 z-score and -0.619 z-score
Cn1c(=O)c2c(ncn2CC(O)CO)n(C)c1=O (stereo not drawn) | -0.398 z-score
CN(C)CCCN1c2ccccc2Sc2ccc(Cl)cc21 | -7 z-score

Sample 2 — Compound: C=CCc1ccc(O)c(-c2ccc(O)c(CC=C)c2)c1; effect on: chloride current
target | test | setting | IC50 [µM]
Anoctamin-1 (ANO1, Homo sapiens, UniProt Q5XXA6, del476-501/R561A) | whole-cell voltage clamp | membrane voltage -60 mV | 6.54
Anoctamin-1 (ANO1, Homo sapiens, UniProt Q5XXA6, del476-501/R631K) | inhibitor, whole-cell patch clamp | 300 nM Ca2+, 100 mV | 8.6
Anoctamin-1 (ANO1, Homo sapiens, UniProt Q5XXA6, del476-501/R631I) | inhibitor, whole-cell voltage clamp | R605I mutant at 60 mV | 25.4

Sample 3 — organism: Sarcocystis neurona; effect on: parasite activity; concentration: 10 µM; time: 96 h
SMILES | activity class
COc1cccc2c1C(=O)c1c(O)c3c(c(O)c1C2=O)C[C@@](O)(C(C)=O)C[C@@H]3O[C@H]1C[C@H](N)[C@H](O)[C@H](C)O1 | inactive
COc1ccccc1OCC(O)CN1CCN(CC(=O)Nc2c(C)cccc2C)CC1 (stereo not drawn) | inactive
CO[C@H]1O[C@@H]2O[C@@]3(C)CC[C@H]4[C@H](C)CC[C@@H]([C@H]1C)[C@@]24OO3 | inactive
COc1cc2nc(N3CCN(C(=O)C4COc5ccccc5O4)CC3)nc(N)c2cc1OC (stereo not drawn) | inactive

Sample 4 — effect on: cell-free assay; technique: competition with immobilised ligand; concentration: 1 µM
Compound: O=C(NS(=O)(=O)c1ccc(NCC2CCOCC2)c([N+](=O)[O-])c1)c1ccc(N2CCN(Cc3ccc(C(F)(F)F)cc3-c3ccc(Cl)cc3)CC2)cc1Oc1cnc2[nH]ccc2c1
target | remaining binding [%]
Epidermal growth factor receptor (EGFR, Homo sapiens, UniProt P00533) | 84
Ephrin type-A receptor 3 (EPHA3, Homo sapiens, UniProt P29320) | 100
Serine/threonine-protein kinase tousled-like 1 (TLK1, Homo sapiens, UniProt Q9UKI8) | 100
Tyrosine-protein kinase receptor Tie-1 (TIE1, Homo sapiens, UniProt P35590) | 100
Mitogen-activated protein kinase 10 (MAPK10, Homo sapiens, UniProt P53779) | 82
Myosin-IIIb (MYO3B, Homo sapiens, UniProt Q8WXR4) | 100
Non-receptor tyrosine-protein kinase TYK2, JH2 (TYK2, Homo sapiens, UniProt P29597) | 73
Tyrosine-protein kinase JAK1, JH1 (JAK1, Homo sapiens, UniProt P23458) | 100
Cyclin-dependent kinase 4, with cyclin D1 (CDK4, Homo sapiens, UniProt P11802) | 100
Tyrosine-protein kinase ABL1, phosphorylated (ABL1, Homo sapiens, UniProt P00519, F317L) | 100
Serine/threonine-protein kinase mTOR (MTOR, Homo sapiens, UniProt P42345) | 100
Interleukin-1 receptor-associated kinase 1 (IRAK1, Homo sapiens, UniProt P51617) | 96
Fibroblast growth factor receptor 3 (FGFR3, Homo sapiens, UniProt P22607, G697C) | 100
Phosphatidylinositol 4,5-bisphosphate 3-kinase catalytic subunit alpha isoform (PIK3CA, Homo sapiens, UniProt P42336, C420R) | 81
Microtubule-associated serine/threonine-protein kinase 1 (MAST1, Homo sapiens, UniProt Q9Y2H9) | 100
Serine/threonine-protein kinase SIK3 (SIK3, Homo sapiens, UniProt Q9Y2K2) | 76

Sample 5 — species: mouse; matrix: microsomes or S9; concentration: 2 µM; time: 0.5 h
SMILES | remaining compound
CC(C)c1nc(C#N)c(NNC(=O)CC2CCCCC2)o1 | 34.1%
Clc1ccc(C2=NOC(COc3cccc(Cl)c3Cl)CC2n2cncn2)cc1 (stereo not drawn) | 29.2%
COc1ccc2c(n1)c1c(n2-c2ccc(N(C)C)cc2)CCC1 | 0.668%
CCOC1CC(N(C)C(=O)Nc2c(C)noc2C)C12CCCC2 (stereo not drawn) | 8.19%
CC(C)(C)OC(=O)NC(CC(=O)N1CCCCN1)Cc1ccccc1F (stereo not drawn) | 0.988%

Further values, each from its own experiment
Structure (SMILES) | cell line | test | setting | scale | quantity | result
CC(C)(C(=O)O)[C@H](NC(=O)Cc1cccc(I)c1)c1ccc2oc(=O)[nH]c2c1 | IPC-298 | Incucyte 3D growth | 30 µM, 138 h | higher = more growth | spheroid area | 2.49e+07 a.u. and 2.37e+07 a.u. and 2.59e+07 a.u. and 1.96e+07 a.u. and 2.82e+07 a.u. and 3.03e+07 a.u.

A few entries again (sample 5):
SMILES | remaining compound
CCOC1CC(N(C)C(=O)Nc2c(C)noc2C)C12CCCC2 (stereo not drawn) | 8.19%
CC(C)c1nc(C#N)c(NNC(=O)CC2CCCCC2)o1 | 34.1%
CC(C)(C)OC(=O)NC(CC(=O)N1CCCCN1)Cc1ccccc1F (stereo not drawn) | 0.988%
COc1ccc2c(n1)c1c(n2-c2ccc(N(C)C)cc2)CCC1 | 0.668%
